{"data": "Measured values gathered from unrelated publications", "organism": "Leishmania infantum", "note": "Protocols differ between the studies behind these lines. ± marks the error that the study gave."}
{"SMILES": "COC(=O)c1c(C)ncn1CC(c1c[nH]c2cc(Br)ccc12)c1c[nH]c2cc(Br)ccc12", "assay": "viability, MTS", "system": "human clinical isolate promastigote", "conditions": "72 h", "quantity": "IC50", "result": "7.5 µM"}
{"SMILES": "CCOC(=O)c1c(C)[nH]c(-c2c[nH]c3ccccc23)c1C#N", "assay": "parasite growth", "conditions": "20 µM, 72 h, promastigote", "quantity": "inhibition", "result": "-46.6%"}
{"SMILES": "CC1(C)CC(=O)c2cc(CNC(=O)/C=C/c3cccs3)ccc2N1", "system": "bone marrow-derived macrophages, intracellular amastigotes", "conditions": "24 h", "quantity": "IC50", "result": "> 10 µM"}
{"SMILES": "Cc1ncnc2c1c(F)cn2[C@@H]1O[C@H](CO)[C@@H](O)[C@H]1O", "assay": "parasite growth, imaging", "system": "mouse Macrophage", "conditions": "5 days, intracellular, amastigote", "quantity": "EC50", "result": "< 0.25 µM"}
{"SMILES": "Cc1ccc(Cc2ccc3c(c2)C(=O)CC(C)(C)O3)cc1", "system": "bone marrow-derived macrophages, intracellular amastigotes", "conditions": "24 h", "quantity": "IC50", "result": "5 to 10 µM"}
{"SMILES": "CCOC(=O)c1c(C)ncn1CC(c1cn(C)c2ccc([N+](=O)[O-])cc12)c1cn(C)c2ccc([N+](=O)[O-])cc12", "assay": "viability, MTS", "system": "human clinical isolate promastigote", "conditions": "72 h", "quantity": "IC50", "result": "5.3 µM"}
{"SMILES": "COc1cc([C@@H]2c3cc4c(cc3[C@@H](O)[C@H]3COC(=O)[C@H]23)OCO4)cc(OC)c1OC", "assay": "parasite growth", "system": "mouse Splenocyte", "conditions": "48 h, intracellular, amastigote", "quantity": "EC50", "result": "> 100 µM"}
{"SMILES": "c1cnc(NCCCn2ccnc2)cn1", "system": "J774.2 macrophages", "conditions": "IC25, 240 h, day 10", "scale": "baseline: untreated", "quantity": "infection inhibition", "result": "44%"}
{"SMILES": "CCc1cn([C@@H]2O[C@H](CO)[C@@H](O)[C@H]2O)c2ncnc(OC)c12", "assay": "parasite growth, imaging", "system": "mouse Macrophage", "conditions": "5 days, intracellular, amastigote", "quantity": "EC50", "result": "> 64 µM"}
{"SMILES": "CCCCCCCCNCc1ccc2c(c1)C(=O)CC(C)(C)O2", "system": "bone marrow-derived macrophages, intracellular amastigotes", "conditions": "24 h", "quantity": "IC50", "result": "24.6 ± 0.4 µM"}
{"SMILES": "C[C@@H]1[C@H](O)[C@@H](C)/C=C/C=C/C=C/C=C/C=C/C=C/C=C/[C@H](O[C@@H]2O[C@H](C)[C@@H](O)[C@H](N)[C@@H]2O)C[C@@H]2O[C@](O)(C[C@@H](O)C[C@@H](O)[C@H](O)CC[C@@H](O)C[C@@H](O)CC(=O)O[C@H]1C)C[C@H](O)[C@H]2C(=O)O", "assay": "viability, MTS", "system": "human clinical isolate promastigote", "conditions": "72 h", "quantity": "IC50", "result": "0.084 µM"}
{"SMILES": "C[C@@H]1[C@H](O)[C@@H](C)/C=C/C=C/C=C/C=C/C=C/C=C/C=C/[C@H](O[C@@H]2O[C@H](C)[C@@H](O)[C@H](N)[C@@H]2O)C[C@@H]2O[C@](O)(C[C@@H](O)C[C@@H](O)[C@H](O)CC[C@@H](O)C[C@@H](O)CC(=O)O[C@H]1C)C[C@H](O)[C@H]2C(=O)O", "system": "bone marrow-derived macrophages, intracellular amastigotes", "conditions": "24 h", "quantity": "IC50", "result": "0.22 ± 0.22 µM"}
{"SMILES": "CCCCCCCCCCCCCCCCOP(=O)([O-])OCC[N+](C)(C)C", "assay": "viability, MTS", "system": "human clinical isolate promastigote", "conditions": "72 h", "quantity": "IC50", "result": "1.2 µM"}
{"SMILES": "Cc1cn([C@@H]2O[C@H](CO)[C@@H](O)[C@H]2O)c2ncnc(C)c12", "assay": "parasite growth, imaging", "system": "mouse Macrophage", "conditions": "5 days, intracellular, amastigote", "quantity": "EC50", "result": "15.3 µM"}
{"SMILES": "C/C=C/C(=O)NCc1ccc2c(c1)C(=O)CC(C)(C)N2", "system": "bone marrow-derived macrophages, intracellular amastigotes", "conditions": "24 h", "quantity": "IC50", "result": "> 10 µM"}
{"SMILES": "CCCCCc1cn([C@@H]2O[C@H](CO)[C@@H](O)[C@H]2O)c2ncnc(C)c12", "assay": "parasite growth, imaging", "system": "mouse Macrophage", "conditions": "5 days, intracellular, amastigote", "quantity": "EC50", "result": "> 64 µM"}
{"SMILES": "CCCCCCCCCCCCCCCCOP(=O)([O-])OCC[N+](C)(C)C", "system": "intracellular amastigotes, ex vivo mouse splenic explants", "conditions": "72 h", "quantity": "EC50", "result": "2.4 ± 0.21 µM"}
{"SMILES": "CCOC(=O)c1c(C#N)c(-c2c[nH]c3ccccc23)n(NC(=O)OC(C)(C)C)c1C", "assay": "parasite growth", "conditions": "20 µM, 72 h, promastigote", "quantity": "inhibition", "result": "-31.6%"}
{"SMILES": "O=C(O)c1ccc(-c2cc3cccc([N+](=O)[O-])c3[nH]c2=O)cc1", "system": "axenic amastigotes", "conditions": "48 h", "quantity": "IC50", "result": "inactive"}
{"SMILES": "Cc1ncnc2c1c(SC(F)(F)F)cn2[C@@H]1O[C@H](CO)[C@@H](O)[C@H]1O", "assay": "parasite growth, imaging", "system": "mouse Macrophage", "conditions": "5 days, intracellular, amastigote", "quantity": "EC50", "result": "> 64 µM"}
{"SMILES": "CCc1ncn(CC(c2c[nH]c3ccc(C)cc23)c2c[nH]c3ccc(C)cc23)c1C(=O)OC", "assay": "viability, MTS", "system": "human clinical isolate promastigote", "conditions": "72 h", "quantity": "IC50", "result": "8.6 µM"}
{"SMILES": "CCc1cn([C@@H]2O[C@H](CO)[C@@H](O)[C@H]2O)c2ncnc(N)c12", "assay": "parasite growth, imaging", "system": "mouse Macrophage", "conditions": "5 days, intracellular, amastigote", "quantity": "EC50", "result": "21.6 µM"}
{"SMILES": "CC1(C)CC(=O)c2cc(CNC(=O)C/C=C/c3ccccc3)ccc2N1", "system": "bone marrow-derived macrophages, intracellular amastigotes", "conditions": "24 h", "quantity": "IC50", "result": "> 10 µM"}
{"SMILES": "Cc1ncnc2c1c(CCc1ccccc1)cn2[C@@H]1O[C@H](CO)[C@@H](O)[C@H]1O", "assay": "parasite growth, imaging", "system": "mouse Macrophage", "conditions": "5 days, intracellular, amastigote", "quantity": "EC50", "result": "> 64 µM"}
{"SMILES": "c1ccc2c(Cc3c[nH]c4ccccc34)c[nH]c2c1", "assay": "viability, MTS", "system": "human clinical isolate promastigote", "conditions": "72 h", "quantity": "IC50", "result": "> 20 µM"}
{"note": "A few entries again:"}
{"SMILES": "CCOC(=O)c1c(C)[nH]c(-c2c[nH]c3ccccc23)c1C#N", "assay": "parasite growth", "conditions": "20 µM, 72 h, promastigote", "quantity": "inhibition", "result": "-46.6%"}
